# Measurements gathered from unrelated publications.
# “And” joins repeats or separate records; there may be more than shown. ± gives the spread as reported.
SMILES,test,system,conditions,how to read,quantity,result
CCN(CCCCOc1ccc(CCC(=O)N2CCC(Cc3ccccc3)CC2)cc1OC)Cc1ccccc1,,"Sprague-Dawley rats, both sexes, faeces","oral gavage, 25 mg/kg, 24 to 48 h",,excreted amount,50800 ± 4570 ng
COc1cnc2cccc(N3CCc4c(cc(Cn5ccnc5)cc4-c4cn(C)nc4C(F)(F)F)C3=O)c2c1,,CD-1 mice,"intraperitoneal, 50 mg/kg once daily, day 1",,body weight,27.7 ± 0.4 g
CN(C)C(=O)c1cncc(-c2cnc3[nH]cc(-c4cc(OS(=O)(=O)F)ccc4C#N)c3c2)c1,HPLC,acetonitrile/water/DMSO,"50 µM, 37 °C, DIPEA 20 eq, with: N-α-acetyl-lysine",,reactivity half-life,> 24 h
CC[C@H](C)[C@H](NC(=O)[C@H](CCCNC(=N)N)NC(=O)[C@H](CCCCN)NC(=O)[C@H](Cc1ccc(O)cc1)NC(=O)[C@H](CC(=O)O)NC(=O)[C@H](C)NC(=O)CNC(=O)CCOCCOCCOCCNC(=O)CN1CCN(CC(=O)O)CCN(CC(=O)O)CCN(CC(=O)O)CC1)C(=O)N[C@H](C(=O)N[C@@H](CC(C)C)C(=O)N[C@@H](CCCCN)C(=O)N[C@H](C(=O)N[C@@H](CC(N)=O)C(N)=O)C(C)C)[C@@H](C)O [copper-64 labelled],,"C57BL/6J mouse male, B16-F10 tumour, small intestine","intravenous, 1.85 MBq, 100 min, 67Ga complex",,tissue uptake,2.21 ± 0.495 %ID/g
CC(C)[C@H](NC(=O)[C@@H](NC(=O)[C@H](CCCNC(=N)N)NC(=O)[C@H](CCCNC(=N)N)NC(=O)[C@H](CCCNC(=N)N)NC(=O)[C@H](CCC(N)=O)NC(=O)[C@H](CCCNC(=N)N)NC(=O)[C@H](CCCNC(=N)N)NC(=O)[C@H](CCCCN)NC(=O)[C@H](CCCCN)NC(=O)[C@H](CCCNC(=N)N)NC(=O)CN)[C@@H](C)O)C(=O)N[C@H](C(=O)N[C@@H](CO)C(=O)N1CCC[C@H]1C(=O)O)[C@@H](C)O,,"ICR mice, male, lung","intranasal, 10 mg/kg daily, 4 weeks",,organ weight,0.386 ± 0.036 g
CC(=O)N[C@H](C(=O)N[C@@H](CCCC(=O)OC(C)(C)C)C(=O)N[C@@H](CCC1CCCCC1)C(=O)N[C@@H](CC(=O)O)C(=O)COC(=O)c1c(C)cccc1C)C(C)(C)C,,"mouse, whole blood","intraperitoneal, dose not given, 3 h",,concentration,595 µM
CC(C)C[C@@H](NC(=O)[C@@H](CCCNC(=N)N)NC(=O)[C@@H](Cc1c[nH]cn1)NC(=O)[C@@H](Cc1c[nH]c2ccccc12)NC(=O)[C@@H](Cc1c[nH]cn1)NC(=O)[C@@H](Cc1ccccc1)NC(=O)[C@H](NC(=O)[C@@H](Cc1ccc(O)cc1)NC(=O)CNC(=O)CNC(=O)CCOCCOCCOCCNC(=O)CN1CCN(CC(=O)O)CCN(CC(=O)O)CC1)[C@H](C)O)C(=O)N[C@H](CC(N)=O)C(=O)N1CCC[C@@H]1C(=O)O [gallium-68 labelled],,"C57BL/6 mice, male","intravenous, 1.85 MBq, 30 min",relative to: tumour over blood,tissue ratio,2.38 ± 0.53
CC[C@H](C)[C@H](NC(=O)[C@H](Cc1ccc(O)cc1)NC(=O)[C@@H](NC(=O)[C@H](CCCNC(=N)N)NC(=O)[C@@H](N)CC(=O)O)C(C)C)C(=O)N[C@@H](Cc1c[nH]cn1)C(=O)N1CCC[C@H]1C(=O)O,LC-MS/MS,"Beagle dog both sexes, plasma","subcutaneous, 10 mg/kg/day, day 0, noncompartmental",,Cmax,1150 ± 489 ng/mL
CN1Cc2cc(Cl)ccc2-n2c(nnc2C2CCN(c3cccc([18F])n3)CC2)C1,PET two-tissue compartment model,"rhesus monkey, amygdala","intravenous, dose not given, 80 min scan, baseline scan",,total volume of distribution,1.13 ± 0.37 mL/cm3
CSCC[C@H](N)C(=O)N[C@@H](C)C(=O)N[C@@H](Cc1c[nH]c2ccccc12)C(=O)N[C@@H](Cc1c[nH]cn1)C(=O)N[C@@H](CC(=O)O)C(=O)N[C@@H](CC(=O)O)C(=O)N[C@@H](CCC(=O)O)C(=O)N[C@@H](CCC(=O)O)C(=O)N[C@@H](Cc1ccccc1)C(=O)N[C@@H](C)C(=O)N[C@@H](CCCNC(=N)N)C(=O)N[C@@H](CCCNC(=N)N)C(=O)N[C@@H](CCCNC(=N)N)C(=O)N[C@@H](CCCNC(=N)N)C(=O)NCCCCCC(=O)NCCCCC(NC(=O)CCCCCNC(=O)[C@H](CCCNC(=N)N)NC(=O)[C@H](CCCNC(=N)N)NC(=O)[C@H](CCCNC(=N)N)NC(=O)[C@H](CCCNC(=N)N)NC(=O)[C@H](C)NC(=O)[C@H](Cc1ccccc1)NC(=O)[C@H](CCC(=O)O)NC(=O)[C@H](CCC(=O)O)NC(=O)[C@H](CC(=O)O)NC(=O)[C@H](CC(=O)O)NC(=O)[C@H](Cc1c[nH]cn1)NC(=O)[C@H](Cc1c[nH]c2ccccc12)NC(=O)[C@H](C)NC(=O)[C@@H](N)CCSC)C(=O)NCCCCC(NC(=O)C(CCCCNC(=O)CCCCCNC(=O)[C@H](CCCNC(=N)N)NC(=O)[C@H](CCCNC(=N)N)NC(=O)[C@H](CCCNC(=N)N)NC(=O)[C@H](CCCNC(=N)N)NC(=O)[C@H](C)NC(=O)[C@H](Cc1ccccc1)NC(=O)[C@H](CCC(=O)O)NC(=O)[C@H](CCC(=O)O)NC(=O)[C@H](CC(=O)O)NC(=O)[C@H](CC(=O)O)NC(=O)[C@H](Cc1c[nH]cn1)NC(=O)[C@H](Cc1c[nH]c2ccccc12)NC(=O)[C@H](C)NC(=O)[C@@H](N)CCSC)NC(=O)CCCCCNC(=O)[C@H](CCCNC(=N)N)NC(=O)[C@H](CCCNC(=N)N)NC(=O)[C@H](CCCNC(=N)N)NC(=O)[C@H](CCCNC(=N)N)NC(=O)[C@H](C)NC(=O)[C@H](Cc1ccccc1)NC(=O)[C@H](CCC(=O)O)NC(=O)[C@H](CCC(=O)O)NC(=O)[C@H](CC(=O)O)NC(=O)[C@H](CC(=O)O)NC(=O)[C@H](Cc1c[nH]cn1)NC(=O)[C@H](Cc1c[nH]c2ccccc12)NC(=O)[C@H](C)NC(=O)[C@@H](N)CCSC)C(N)=O (some centres unmarked),,"C57BL/6 mouse female, ovary","dose not given, 3 h",relative to: total,tissue distribution,0.17% and 0.24% and 0.33%
O=C1NC2(CC2)COc2ncc(F)cc2[C@H]2COCCN2c2ccn3ncc1c3n2,,"Sprague-Dawley rat, female, kidneys","oral, 20 mg/kg/day, 4 weeks",,organ weight,2.12 ± 0.235 g
CC[C@H](C)[C@H](NC(=O)[C@H](CCCCN)NC(=O)CNC(=O)[C@H](CC(C)C)NC(=O)[C@H](Cc1ccccc1)NC(=O)[C@H](CCCCN)NC(=O)[C@H](CO)NC(=O)[C@H](Cc1ccccc1)NC(=O)[C@H](Cc1c[nH]c2ccccc12)NC(=O)[C@H](CCC(N)=O)NC(=O)[C@@H](NC(=O)[C@H](Cc1ccccc1)NC(=O)CCCCCNC(=O)CN1CCN(CC(=O)O)CCN(CC(=O)O)CCN(CC(=O)O)CC1)C(C)C)C(=O)N[C@@H](CCC(=O)O)C(=O)N1CCC[C@H]1C(=O)N[C@@H](CC(=O)O)C(=O)N[C@H](C(=O)N[C@@H](CO)C(=O)N[C@@H](CCC(N)=O)C(=O)N[C@H](C(=O)N[C@@H](CCC(N)=O)C(=O)N[C@@H](CC(=O)O)C(=O)N1CCC[C@H]1C(=O)N[C@@H](CC(N)=O)C(=O)N[C@@H](CC(=O)O)C(=O)N[C@@H](CCC(N)=O)C(=O)N[C@@H](Cc1ccc(O)cc1)C(=O)N[C@@H](CCC(=O)O)C(=O)N1CCC[C@H]1C(=O)N[C@@H](Cc1ccccc1)C(=O)O)C(C)C)C(C)C [copper-64 labelled],dynamic PET,"mouse, CT26 tumour, checkpoint inhibitor-treated, tumour","intravenous, 100 µCi/mouse, 2580 s",,SUVmean,4.91 SUV
CCCCCCCCCCCCCCCC(=O)N[C@@H](CCC(=O)NCCOCCOCCC(=O)NCCOCCOCCC(=O)NCCCC[C@H](NC(=O)[C@H](CC(=O)O)NC(=O)[C@H](CC(C)C)NC(=O)[C@H](Cc1ccc(O)cc1)NC(=O)[C@H](CCCCN)NC(=O)[C@H](CO)NC(=O)[C@H](Cc1ccc(O)cc1)NC(=O)[C@H](CC(=O)O)NC(=O)[C@H](CO)NC(=O)[C@@H](NC(=O)[C@H](Cc1ccccc1)NC(=O)[C@@H](NC(=O)CNC(=O)[C@H](CCC(N)=O)NC(=O)[C@@H](CO)NC(=O)[C@@H](N)Cc1c[nH]cn1)[C@@H](C)O)[C@@H](C)O)C(=O)N[C@@H](CCCNC(=N)N)C(=O)N[C@@H](CCCNC(=N)N)C(=O)N[C@@H](C)C(=O)N[C@@H](CCC(N)=O)C(=O)N[C@@H](CC(=O)O)C(=O)N[C@@H](Cc1ccccc1)C(=O)N[C@H](C(=O)N[C@@H](CCC(N)=O)C(=O)N[C@@H](Cc1c[nH]c2ccccc12)C(=O)N[C@@H](CC(C)C)C(=O)N[C@@H](CC(C)C)C(=O)N[C@@H](CC(N)=O)C(=O)N[C@H](C(=O)NCC(=O)NCC(=O)N1CCC[C@H]1C(=O)N[C@@H](CO)C(=O)N[C@@H](CO)C(=O)NCC(=O)N[C@@H](C)C(=O)N1CCC[C@H]1C(=O)N1CCC[C@H]1C(=O)N1CCC[C@H]1C(=O)N[C@@H](CO)C(N)=O)[C@@H](C)O)C(C)C)C(=O)O,,"rhesus monkey, plasma","subcutaneous, 5 µg/kg, single dose",,AUC(0-inf),11.8 ng·h/mL
O=C(c1cc(Cc2n[nH]c(=O)c3ccccc23)ccc1F)N1CC(CNC2CC2)C1,,female Wistar Han rat,"oral, 15 mg/kg, day 1",,Cmax,2940 ng/mL
C=C/C=C/C[C@@H](C)[C@@H](O)[C@H]1C(=O)N[C@@H](CC)C(=O)N(C)CC(=O)N(C)[C@@H](CC(C)C)C(=O)N[C@@H](C(C)C)C(=O)N(C)[C@@H](CC(C)C)C(=O)N[C@@H](C)C(=O)N[C@H](C)C(=O)N(C)[C@@H](CC(C)C)C(=O)N(C)[C@@H](CC(C)C)C(=O)N(C)[C@@H](C(C)C)C(=O)N1C,,"Wistar Kyoto rat, male, plasma","ip, 0.5 mg/kg/day, day 28, at sacrifice",,plasma HCO3- level,25.3 ± 1.1 mmol/L
CC(C)C[C@H](NC(=O)[C@H](Cc1ccc(O)cc1)NC(=O)[C@H](Cc1c[nH]cn1)NC(=O)[C@H](CC(=O)O)NC(=O)[C@@H](NC(=O)[C@H](C)NC(=O)[C@H](CC(C)C)NC(=O)CNC(=O)CNC(=O)[C@@H](NC(=O)[C@@H](NC(=O)[C@H](CCCCN)NC(=O)CNC(=O)[C@@H](NC(=O)[C@H](CCCCN)NC(=O)[C@H](CCCCN)NC(=O)[C@H](C)NC(=O)[C@H](CCCNC(=N)N)NC(=O)[C@H](CC(N)=O)NC(=O)[C@H](Cc1ccccc1)NC(=O)[C@H](Cc1c[nH]c2ccccc12)NC(=O)[C@H](CCCCN)NC(=O)[C@H](CCCCN)NC(=O)[C@H](Cc1c[nH]c2ccccc12)NC(=O)CN)C(C)C)[C@@H](C)O)C(C)C)C(C)C)C(N)=O,,"zebrafish embryos 4 hpf, E3 medium",1 h,,acute toxic concentration,5 µM
CSCC[C@H](NC(=O)CNC(=O)[C@H](CCCCN)NC(=O)[C@H](CC(C)C)NC(=O)[C@@H]1CCCN1C(=O)[C@H](CO)NC(=O)[C@H](Cc1c[nH]cn1)NC(=O)[C@H](Cc1c[nH]c2ccccc12)NC(=O)[C@H](CCCNC(=N)N)NC(=O)[C@H](CC(C)C)NC(=O)[C@H](CCCNC(=N)N)NC(=O)[C@H](Cc1c[nH]c2ccccc12)NC(=O)[C@H](CS)NC(=O)CCCCCNC(=O)CN1CCN(CC(=O)O)CCN(CC(=O)O)CCN(CC(=O)O)CC1)C(=O)O [copper-64 labelled],ex vivo biodistribution,"male C57BL/6J mice, testis","intravenous, 1.85 MBq, 30 h, B16-F10 tumour-bearing",,tissue uptake,0.8 %ID/g

# For quick reference, copied from above:
SMILES,test,system,conditions,how to read,quantity,result
CCCCCCCCCCCCCCCC(=O)N[C@@H](CCC(=O)NCCOCCOCCC(=O)NCCOCCOCCC(=O)NCCCC[C@H](NC(=O)[C@H](CC(=O)O)NC(=O)[C@H](CC(C)C)NC(=O)[C@H](Cc1ccc(O)cc1)NC(=O)[C@H](CCCCN)NC(=O)[C@H](CO)NC(=O)[C@H](Cc1ccc(O)cc1)NC(=O)[C@H](CC(=O)O)NC(=O)[C@H](CO)NC(=O)[C@@H](NC(=O)[C@H](Cc1ccccc1)NC(=O)[C@@H](NC(=O)CNC(=O)[C@H](CCC(N)=O)NC(=O)[C@@H](CO)NC(=O)[C@@H](N)Cc1c[nH]cn1)[C@@H](C)O)[C@@H](C)O)C(=O)N[C@@H](CCCNC(=N)N)C(=O)N[C@@H](CCCNC(=N)N)C(=O)N[C@@H](C)C(=O)N[C@@H](CCC(N)=O)C(=O)N[C@@H](CC(=O)O)C(=O)N[C@@H](Cc1ccccc1)C(=O)N[C@H](C(=O)N[C@@H](CCC(N)=O)C(=O)N[C@@H](Cc1c[nH]c2ccccc12)C(=O)N[C@@H](CC(C)C)C(=O)N[C@@H](CC(C)C)C(=O)N[C@@H](CC(N)=O)C(=O)N[C@H](C(=O)NCC(=O)NCC(=O)N1CCC[C@H]1C(=O)N[C@@H](CO)C(=O)N[C@@H](CO)C(=O)NCC(=O)N[C@@H](C)C(=O)N1CCC[C@H]1C(=O)N1CCC[C@H]1C(=O)N1CCC[C@H]1C(=O)N[C@@H](CO)C(N)=O)[C@@H](C)O)C(C)C)C(=O)O,,"rhesus monkey, plasma","subcutaneous, 5 µg/kg, single dose",,AUC(0-inf),11.8 ng·h/mL
O=C(c1cc(Cc2n[nH]c(=O)c3ccccc23)ccc1F)N1CC(CNC2CC2)C1,,female Wistar Han rat,"oral, 15 mg/kg, day 1",,Cmax,2940 ng/mL
